Assay results from different studies.
Parts stem from different laboratories: compare values within a part only.

Series 1
Target: Sal-like protein 4, full length isoform A (SALL4, Homo sapiens, UniProt Q9UJQ4, residues 1-1053)
Chain of UniProt Q9UJQ4 (whole entry, looked up): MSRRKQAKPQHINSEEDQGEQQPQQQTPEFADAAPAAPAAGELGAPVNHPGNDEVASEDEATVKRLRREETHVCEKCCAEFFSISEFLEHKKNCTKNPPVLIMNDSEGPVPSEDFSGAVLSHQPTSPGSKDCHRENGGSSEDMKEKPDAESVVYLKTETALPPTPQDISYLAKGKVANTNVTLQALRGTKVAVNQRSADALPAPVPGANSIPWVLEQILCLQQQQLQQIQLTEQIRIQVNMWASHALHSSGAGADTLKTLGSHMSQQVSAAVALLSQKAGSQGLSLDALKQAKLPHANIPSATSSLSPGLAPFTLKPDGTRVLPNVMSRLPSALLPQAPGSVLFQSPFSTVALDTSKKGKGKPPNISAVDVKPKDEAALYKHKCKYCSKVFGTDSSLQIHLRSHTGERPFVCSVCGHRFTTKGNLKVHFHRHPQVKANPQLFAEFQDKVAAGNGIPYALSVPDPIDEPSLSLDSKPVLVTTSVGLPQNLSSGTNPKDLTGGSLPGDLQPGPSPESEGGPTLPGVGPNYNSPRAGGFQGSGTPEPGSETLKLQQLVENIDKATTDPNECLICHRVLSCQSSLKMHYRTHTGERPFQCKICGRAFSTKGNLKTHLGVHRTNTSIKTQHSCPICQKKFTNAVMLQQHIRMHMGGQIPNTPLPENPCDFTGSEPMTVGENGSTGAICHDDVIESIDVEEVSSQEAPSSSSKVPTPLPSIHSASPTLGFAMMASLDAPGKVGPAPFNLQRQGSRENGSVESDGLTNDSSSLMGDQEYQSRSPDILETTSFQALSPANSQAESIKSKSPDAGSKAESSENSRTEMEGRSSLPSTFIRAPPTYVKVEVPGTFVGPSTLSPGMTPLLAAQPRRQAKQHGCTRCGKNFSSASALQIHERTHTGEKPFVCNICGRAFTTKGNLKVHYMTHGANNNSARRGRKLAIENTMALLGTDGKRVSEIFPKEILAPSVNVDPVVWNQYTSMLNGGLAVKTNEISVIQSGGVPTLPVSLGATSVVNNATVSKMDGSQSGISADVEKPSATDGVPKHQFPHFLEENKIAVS
Technique: universal PBM
Molecule type: double-stranded DNA, one strand shown
Matrix: in vitro
Tested at: 600 nM
Setting: 8-mer, flanks averaged, mean of replicates
Reading: higher = stronger binding
Sequence | E-score
CGGACTCC | -0.263
GGTTGCAA | -0.0212
AGAGGACA | -0.0351
CGCACCAA | -0.201
AAGACTGA | 0.116
ACGCTTAA | 0.0941
TACCACCA | -0.016
GAGACTTA | 0.107
AGACTATC | 0.00817
AACCGCCC | -0.318
CACCTTGC | -0.161
CAGACGTC | -0.187
ACAAGCTA | -0.00405
GCTCGTTA | -0.0547
ATGGTACG | 0.0627
GCCGTGCC | -0.188
GGGTGGCA | -0.369
CGTGCTAC | -0.238
AGAACACG | 0.0218
GTCCCTGA | -0.175
ACGCCTTA | -0.0877
CTTCCAAA | 0.232

Series 2
Target: Centromere-binding protein 1, full length, His-tagged (CBF1, Saccharomyces cerevisiae, UniProt P17106, residues 1-351)
Chain of UniProt P17106 (whole entry, looked up): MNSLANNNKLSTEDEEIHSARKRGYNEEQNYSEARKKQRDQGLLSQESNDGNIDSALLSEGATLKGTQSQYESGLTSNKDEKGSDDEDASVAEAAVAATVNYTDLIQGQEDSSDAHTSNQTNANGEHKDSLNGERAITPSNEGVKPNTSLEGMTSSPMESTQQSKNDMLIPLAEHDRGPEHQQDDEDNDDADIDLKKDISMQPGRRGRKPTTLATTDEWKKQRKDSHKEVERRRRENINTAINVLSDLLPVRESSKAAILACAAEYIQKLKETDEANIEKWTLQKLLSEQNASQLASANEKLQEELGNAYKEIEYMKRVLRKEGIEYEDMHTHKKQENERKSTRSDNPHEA
Technique: competition protein-binding microarray
Molecule type: double-stranded DNA, one strand shown
Matrix: in vitro
Tested at: 2 µM
Setting: whole 60-bp probe, lowest competitor level
Added: Pho4 competitor, 0.05 µM
Reading: higher = stronger binding
Sequence | fluorescence intensity
CGTCCTAGTGATTTTCACGTGTCATCCATGAGGAAGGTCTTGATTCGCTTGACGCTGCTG | 972 a.u.
TGCGCAACAACTTGTGAGGTGGGTGTATGTCTAGAAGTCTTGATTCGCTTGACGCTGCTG | 71 a.u.
CAATGTCCATTTTAGCACGTGGGACTTGTTCTGTGGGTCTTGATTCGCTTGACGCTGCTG | 1480 a.u.
AGAAATTTTGGCCGCCATGTGGTCTTCTACAATTATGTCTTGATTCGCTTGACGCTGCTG | 110 a.u.
CATGAAATTGCTTACGTCGTGCCAGATTACATATAGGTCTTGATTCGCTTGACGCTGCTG | 96.4 a.u.
AGGTTTTGCGGCCATCACGTTCGTCGGGACATATGAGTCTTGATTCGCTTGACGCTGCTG | 126 a.u.
GCAATCCGAGCTTGACACATGGTTTCTGGAGGTCTGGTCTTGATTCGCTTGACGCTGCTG | 90.2 a.u.
CTTTCCCGATCTTGTCCCGTGGGTGTAGCACATTTGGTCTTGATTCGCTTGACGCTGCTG | 104 a.u.
CGGGGTTAAGTTTGAACCGTGGGTGGCTTGCAGCAGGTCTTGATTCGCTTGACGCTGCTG | 56.6 a.u.
AAATTACTAAGTTGTCACAGCACTTACCCCGTATGAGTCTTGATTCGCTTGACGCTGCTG | 67.2 a.u.
CGGGGTTAAGTTTTTCACGTGATGTGCTTGCAGCAGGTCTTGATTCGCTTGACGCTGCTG | 3230 a.u.
TGTATCCTATACAATCACGGGCGACGGACAAGACCCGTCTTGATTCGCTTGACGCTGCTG | 121 a.u.
AAATTACTAAGTTGAGAGGTGGGTGACGCCGTATGAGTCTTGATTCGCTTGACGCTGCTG | 69.2 a.u.
TTTGTCCTGAGCAATCACCTGATAGTAACGCACCAGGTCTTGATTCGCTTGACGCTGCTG | 541 a.u.
TGGACCATCCAAGTACTCGTGAAGATCCGAGCCACAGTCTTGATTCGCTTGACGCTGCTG | 67.7 a.u.
CGAAGTTATTTGTCTAGCATGATAAGGTACAATGCCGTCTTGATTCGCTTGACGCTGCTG | 75.6 a.u.
TGTGTCATTTCGACGTTCGTGATGGCAAAACGATGCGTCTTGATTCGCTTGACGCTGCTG | 157 a.u.
TGCGCAACAACTTGCCAAGTGGGTGTATGTCTAGAAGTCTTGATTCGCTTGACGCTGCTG | 63.1 a.u.
CAGGGATCAGGGCACCACGTGGGGGAAGGACTGTGTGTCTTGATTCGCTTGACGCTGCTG | 655 a.u.
CGGGGTTAAGTTTGTAAAGTGGGTGGCTTGCAGCAGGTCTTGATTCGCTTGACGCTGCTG | 66 a.u.
GCGCAATACGTTAAGCTCGTGCTTTAGGTTTCGCCGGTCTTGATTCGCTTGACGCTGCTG | 85.5 a.u.
CTCGTCTGACGCGGAAACGTGCGGAAAAAAATCTCCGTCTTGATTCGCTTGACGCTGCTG | 111 a.u.
CTTTCCCGATCTTGTCACAATACTTTAGCACATTTGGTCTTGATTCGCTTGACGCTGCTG | 85.4 a.u.
CGGGGTTAAGTTTGGTGAGTGGGTGGCTTGCAGCAGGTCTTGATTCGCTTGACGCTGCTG | 57.7 a.u.

Series 3
Target: Prothrombin, mature alpha-thrombin (F2, Homo sapiens, UniProt P00734)
Technique: aptamer microarray, sandwich
Molecule type: DNA with 2'F-ANA
Matrix: in vitro
Tested at: 200 nM
Setting: whole 15-mer aptamer, many near background
Added: Cy3 exosite-II aptamer, 400 nM
Reading: higher = stronger binding
Sequence: GGTTGGTGTGGTTGG
Modification | mean fluorescence intensity [a.u.]
2'F-ANA at 3 4 6 10 13 14 15 | 182
2'F-ANA at 1 3 4 5 6 9 | 61.6
2'F-ANA at 1 3 4 5 6 9 10 11 14 15 | 50.6
2'F-ANA at 2 3 8 10 13 15 | 321
2'F-ANA at 1 2 4 5 10 12 14 | 49.6
2'F-ANA at 4 6 7 8 9 13 15 | 183
2'F-ANA at 4 6 7 8 10 11 12 13 14 | 81
2'F-ANA at 2 8 10 11 12 15 | 144
2'F-ANA at 1 3 4 8 10 13 | 54.5
2'F-ANA at 1 3 4 5 6 9 10 12 14 15 | 53.5
2'F-ANA at 3 6 8 12 15 | 1330
2'F-ANA at 1 2 3 8 11 15 | 228
2'F-ANA at 2 5 6 8 13 | 68
2'F-ANA at 3 5 6 7 9 15 | 96.9
2'F-ANA at 3 5 6 7 9 10 11 12 13 14 | 59.4
2'F-ANA at 2 4 5 6 7 8 9 11 | 78.6
2'F-ANA at 1 2 4 5 7 13 14 15 | 46.4
2'F-ANA at 3 5 7 9 10 11 14 15 | 54.7
2'F-ANA at 1 4 8 9 14 | 49.4
2'F-ANA at 1 7 15 | 275
2'F-ANA at 1 4 5 6 7 8 9 10 11 13 15 | 79.5
2'F-ANA at 3 4 5 6 7 8 9 12 13 14 15 | 53.7
2'F-ANA at 1 3 8 11 12 14 15 | 136

Series 4
Target: RNA binding protein fox-1 homolog 2, RRM domain, GST-SBP tag (RBFOX2, Homo sapiens, UniProt O43251-10, residues 100-194)
Technique: RNA Bind-n-Seq
Molecule type: RNA
Matrix: in vitro
Tested at: 365 nM
Setting: natural RNA segment, single round, ends assumed
Reference: no-protein control
Reading: higher = stronger binding
Residues (chain): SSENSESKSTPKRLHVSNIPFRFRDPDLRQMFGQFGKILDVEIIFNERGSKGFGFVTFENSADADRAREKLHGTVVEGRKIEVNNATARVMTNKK
Sequence | RBNS enrichment (R)
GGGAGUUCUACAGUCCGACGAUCUUUUUAGGGAAAUUUUUACAAAAAUAAUGGUCUGAUGUAAAUACCAUUUUAAAGUACAGUGCACAUAACUCCCUAGGCUGUUCCAACCUGACUAUUUGUAAAUGCUUUAGUGGAAUUCUCGGGUGCCAA | 3.65
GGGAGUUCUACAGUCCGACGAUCCUUUUCUGUUUGCUAAGUGAGGAUGAAAAAAUAACACUGUACUGCAAUAAGGGGAGAGUAACCCUGUCUAAUGAAACCUGUGUCUCUGAGAGUAGAGUCACUGGAACACUUGGAAUUCUCGGGUGCCAA | 0.877
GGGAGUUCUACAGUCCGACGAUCGCAUUGGAAACAGCCGCACUAUGGCUUCUUUGAGACCCUAUUUCCUUUUCUGGUUGUGGACAAGGCUGCCUUAGGACUUUGCUAACCCAAUAAAACCUUUAGAUUCUGGUUGGAAUUCUCGGGUGCCAA | 0.448
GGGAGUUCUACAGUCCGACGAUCCACAUAGAUGCAUAGGAUGGAGUUCCCUGAGGAAAACAGCACUUGAGCAUGGUGAGGAGUAGCCAGGGUGAAUUUCACAACAUUUGUACUAGAUUUAGAUGCUCAAGAAUUGGAAUUCUCGGGUGCCAA | 0.895
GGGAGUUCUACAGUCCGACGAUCAUCAUAGUCGAUACAUUCAAGUACUUUAUCUUCAGUUCCUAUUUAAUUGUCUUCAGAUAUAUCAUCAUAACUGAUGCAAGAUAAGGUGAAAUCUUGCAUCUUCAAGAAAAUGGAAUUCUCGGGUGCCAA | 0.469
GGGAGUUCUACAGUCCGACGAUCCACACCUCAGUGGAAGUAGCAGAAUGCCUCCCUGACCCGGGGCUCUUAGGGACUCUUGCUGCUAUGCUUGCCAGCAAAUGGCAAUCAAGGGACAAUUAGCCACUUGCCCCUGGAAUUCUCGGGUGCCAA | 0.692
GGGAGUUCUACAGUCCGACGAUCCGUGUAGGUGCCACGGCUCCACUCUGUUCCUCUCUGCUUUGUUCUUCCCUGGACUGAGCUCAGCGCAGGCUGUGACCCCAGGAGGGCCCUGCCACGGGCCACUGGCUGCUUGGAAUUCUCGGGUGCCAA | 0.358
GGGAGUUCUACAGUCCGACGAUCACCUGAAAUAGCCAUGAGCAAAGCCCACUGCCUUUACAGUCAGGCAGUUGUGCCCAGACCUUCAUGAAUGAAAACGUCAACGUUGAAGCGUUGCUGAUGGAAGCAGCGUGUGGAAUUCUCGGGUGCCAA | 0.337
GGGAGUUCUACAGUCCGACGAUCAGUUACCAACUUAAAAAUAAAAAAUCCGAACAACAUACUUGAAGAAUGUAAUACUCAAACUCUCAGUGCUUCCUUAUAAUUUCUAAUAGAAUUUUUUAUUAUUGUUAUUAUGGAAUUCUCGGGUGCCAA | 0.693
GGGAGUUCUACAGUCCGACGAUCUCUCAUCUUGUCAGAGCCCUAUGUGCUAUAUCCACAUUUAUAUAUAUUUUUUCUAGCCUAUGUAGUUGUUCAGCUUUUAACAAAUAACUCUGGCAGUAUUUUAAACAUGCUGGAAUUCUCGGGUGCCAA | 0.732
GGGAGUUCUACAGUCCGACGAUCCUUGUGUAGAUAUUUUUAAGUUCUUUGGCUAAGUCCUCUCCUAACUGCCUGUCCUCUGGUUAGGCCCCUCCCUCUCCACUAGUGGUGAAUGCAUGUGUCUGUCUGAUCAGUGGAAUUCUCGGGUGCCAA | 39.9
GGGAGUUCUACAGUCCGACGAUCUAGGAUUCUAUUACAUAUGCAAUUUGAGGUCUAACUUGUCCCUUUCCCUGCCAGCCAACCCCCACCACUCUAAGAGAAAUUUUAGCUUAUAUAUGACGGUAUAUUUGCAAUGGAAUUCUCGGGUGCCAA | 0.197

Series 5
Target: Histone acetyltransferase KAT6A, winged helix 2, GST fusion (KAT6A, Homo sapiens, UniProt Q92794, residues 85-181)
Technique: protein binding microarray
Molecule type: double-stranded DNA, one strand shown
Matrix: in vitro
Tested at: not given
Setting: 8-mer, flanks averaged, mean of 2 arrays, mostly near background
Reference: not given
Reading: higher = stronger binding
Residues (chain): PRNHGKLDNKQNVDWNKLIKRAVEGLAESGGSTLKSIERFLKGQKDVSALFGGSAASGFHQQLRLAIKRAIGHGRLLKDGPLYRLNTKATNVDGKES
Sequence | E-score
ATCCCCGG | -0.0807
AATTATAA | 0.0852
ATGCGTCA | -0.0244
ACAGCGCT | -0.067
GAGTTAAA | -0.0203
CCCTTATA | -0.177
GAGCCGAA | 0.152
AGATCTAG | -0.069
CTATAATA | -0.0326
GTTCGTAA | -0.0331
ACTGGATG | -0.0356
CTGTGAGC | 0.103
TCGGTAGA | 0.0249
ATCGTGTA | -0.0468
CTACGGAA | -0.188
AAGCTATA | 0.149
CGCACTGA | 0.109
GAATCTGA | -0.0153
ATCGCGGC | 0.222
GATAGGCA | 0.0339
ACACCAGC | -0.00325
AAGAGTGC | -0.177
ATGCGAGA | -0.00479
GGGCTCTA | -0.0297
CTCGATGA | 0.0863

For quick reference, copied from above (series 3):
Modification | mean fluorescence intensity [a.u.]
2'F-ANA at 1 2 4 5 10 12 14 | 49.6
2'F-ANA at 4 6 7 8 9 13 15 | 183
2'F-ANA at 2 4 5 6 7 8 9 11 | 78.6
2'F-ANA at 1 4 5 6 7 8 9 10 11 13 15 | 79.5
2'F-ANA at 1 3 4 5 6 9 10 12 14 15 | 53.5
2'F-ANA at 2 3 8 10 13 15 | 321
2'F-ANA at 2 5 6 8 13 | 68
2'F-ANA at 1 2 3 8 11 15 | 228
2'F-ANA at 3 5 6 7 9 15 | 96.9
